Published values pooled from the literature.
Numbered parts are unrelated; each lists some results of a single study.
Chain of UniProt P00519 (whole entry, looked up): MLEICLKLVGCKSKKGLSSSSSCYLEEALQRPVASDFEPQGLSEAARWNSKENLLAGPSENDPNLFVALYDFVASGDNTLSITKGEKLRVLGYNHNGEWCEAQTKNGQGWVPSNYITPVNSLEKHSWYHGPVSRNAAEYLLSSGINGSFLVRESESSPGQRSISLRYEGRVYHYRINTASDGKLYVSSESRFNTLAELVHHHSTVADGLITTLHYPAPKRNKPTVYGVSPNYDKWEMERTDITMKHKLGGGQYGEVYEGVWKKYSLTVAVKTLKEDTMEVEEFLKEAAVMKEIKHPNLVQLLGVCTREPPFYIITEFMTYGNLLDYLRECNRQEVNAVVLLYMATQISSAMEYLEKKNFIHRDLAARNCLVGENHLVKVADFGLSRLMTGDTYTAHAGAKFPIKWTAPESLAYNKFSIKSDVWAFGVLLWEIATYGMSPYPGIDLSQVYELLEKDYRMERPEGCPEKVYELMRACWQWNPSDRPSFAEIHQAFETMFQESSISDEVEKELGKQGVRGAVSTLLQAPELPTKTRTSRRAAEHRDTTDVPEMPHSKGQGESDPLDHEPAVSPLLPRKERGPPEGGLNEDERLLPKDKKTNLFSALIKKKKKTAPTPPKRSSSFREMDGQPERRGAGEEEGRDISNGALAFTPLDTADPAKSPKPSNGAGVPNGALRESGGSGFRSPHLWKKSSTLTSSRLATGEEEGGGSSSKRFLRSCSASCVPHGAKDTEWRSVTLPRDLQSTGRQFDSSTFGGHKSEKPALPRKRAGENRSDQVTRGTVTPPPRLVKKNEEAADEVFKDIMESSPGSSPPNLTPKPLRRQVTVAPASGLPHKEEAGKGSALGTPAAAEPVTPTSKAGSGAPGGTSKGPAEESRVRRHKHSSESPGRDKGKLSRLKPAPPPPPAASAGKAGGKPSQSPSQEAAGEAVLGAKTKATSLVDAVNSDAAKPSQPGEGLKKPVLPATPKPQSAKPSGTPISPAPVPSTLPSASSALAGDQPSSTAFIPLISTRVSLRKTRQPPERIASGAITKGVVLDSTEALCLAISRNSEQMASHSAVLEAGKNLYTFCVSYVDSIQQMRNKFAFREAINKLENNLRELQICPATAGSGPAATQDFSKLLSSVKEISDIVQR

Study 1
Target: Protein max, full length (MAX, Homo sapiens, UniProt P61244-2, residues 1-151)
Method: protein-binding microarray
Molecule type: double-stranded DNA, one strand shown
Matrix: in vitro
Concentration: not given
Setting: k-mer, scored over probes, only values ≥0.25
Direction: higher = stronger binding
Strand | E-score
CCATGAGG | 0.418
AAGCGTGA | 0.397
AACGCACA | 0.265
ACCACGTC | 0.258
CATGTCGG | 0.267
CATGTGGC | 0.483
CGTCACGC | 0.391
ACATGTAT | 0.362

Study 2
Target: Sal-like protein 4, full length isoform A (SALL4, Homo sapiens, UniProt Q9UJQ4, residues 1-1053)
Chain of UniProt Q9UJQ4 (whole entry, looked up): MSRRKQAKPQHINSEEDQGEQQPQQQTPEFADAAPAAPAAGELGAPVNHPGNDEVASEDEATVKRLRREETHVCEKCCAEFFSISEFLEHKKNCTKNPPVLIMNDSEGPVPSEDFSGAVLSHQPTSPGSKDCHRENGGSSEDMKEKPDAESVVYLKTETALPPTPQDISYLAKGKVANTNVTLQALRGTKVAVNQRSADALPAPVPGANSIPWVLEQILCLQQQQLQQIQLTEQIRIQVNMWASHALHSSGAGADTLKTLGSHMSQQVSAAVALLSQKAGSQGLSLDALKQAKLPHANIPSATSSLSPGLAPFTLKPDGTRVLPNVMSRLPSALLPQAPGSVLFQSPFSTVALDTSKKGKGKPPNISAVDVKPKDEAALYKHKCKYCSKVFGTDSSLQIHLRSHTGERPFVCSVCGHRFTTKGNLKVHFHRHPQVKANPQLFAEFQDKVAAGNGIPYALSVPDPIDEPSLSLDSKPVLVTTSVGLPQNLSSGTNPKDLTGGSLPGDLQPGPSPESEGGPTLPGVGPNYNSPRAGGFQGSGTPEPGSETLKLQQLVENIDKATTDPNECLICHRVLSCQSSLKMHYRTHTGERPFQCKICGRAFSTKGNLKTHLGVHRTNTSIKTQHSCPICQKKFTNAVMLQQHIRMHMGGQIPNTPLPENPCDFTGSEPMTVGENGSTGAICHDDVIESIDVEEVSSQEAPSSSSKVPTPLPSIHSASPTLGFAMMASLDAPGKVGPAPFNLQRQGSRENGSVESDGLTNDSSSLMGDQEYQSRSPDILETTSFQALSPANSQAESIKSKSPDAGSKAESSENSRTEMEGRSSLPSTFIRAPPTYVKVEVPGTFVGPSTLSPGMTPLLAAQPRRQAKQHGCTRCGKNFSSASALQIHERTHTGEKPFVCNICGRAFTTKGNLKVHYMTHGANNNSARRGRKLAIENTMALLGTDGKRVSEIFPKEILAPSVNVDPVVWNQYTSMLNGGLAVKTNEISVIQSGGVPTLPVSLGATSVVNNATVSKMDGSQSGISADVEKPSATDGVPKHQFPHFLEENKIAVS
Method: universal PBM
Molecule type: double-stranded DNA, one strand shown
Matrix: in vitro
Concentration: 600 nM
Setting: 8-mer, flanks averaged, mean of replicates
Direction: higher = stronger binding
Strand | E-score
GTCGGGCA | -0.244
GAGGCCTA | -0.217
CGATAGTA | -0.0029
AAAACTAA | 0.266
AAGGCGAC | -0.2
CAGGCTGG | -0.316
ACGAGAGA | 0.0631
CGTAGTAG | -0.0299

Study 3
Target: TAR DNA-binding protein 43, full length, His tag (TARDBP, Homo sapiens, UniProt Q13148, residues 1-414)
Method: RNA Bind-n-Seq
Molecule type: RNA
Matrix: in vitro
Concentration: 20 nM
Setting: 6-mer, flanks averaged, single round
Together with: 150 mM KCl
Reference: input library
Direction: higher = stronger binding
Strand | 6-mer enrichment (R)
GUUCGC | 0.749
GCGUAC | 0.866
GGGAUA | 1.83
UGCUGA | 0.793
UGCUAC | 0.635
UGAUGC | 0.798
UGGACG | 1.51
GAGCGU | 1.33

Other studies, line by line
SMILES | target | test | conditions | quantity | value
O=C(NS(=O)(=O)c1ccc(NCC2CCOCC2)c([N+](=O)[O-])c1)c1ccc(N2CCN(Cc3ccc(C(F)(F)F)cc3-c3ccc(Cl)cc3)CC2)cc1Oc1cnc2[nH]ccc2c1 | Tyrosine-protein kinase ABL1, phosphorylated (ABL1, Homo sapiens, UniProt P00519) | cell-free assay, competition with immobilised ligand | 1 µM | remaining binding | 86%

Repeated from above (study 1):
Strand | E-score
CATGTCGG | 0.267
CGTCACGC | 0.391
